{"data": "Experimental data gathered from unrelated publications", "note": "Numbered parts are unrelated; each lists some results of a single study."}
{"data": "Series 1", "target": "RING finger protein unkempt homolog, zinc fingers 1-6, GST-SBP tag (UNK, Homo sapiens, UniProt Q9C0B0, residues 30-357)", "technique": "RNA Bind-n-Seq", "form": "RNA", "matrix": "in vitro", "tested at": "not given", "notes": "RNA with constant flanks, human and mouse sites, ends assumed", "relative to": "input RNA pool", "reading": "higher = stronger binding", "all sequences stand within": "GGGAGUUCUACAGUCCGACGAUC … CAACAGAGGAUUGAGCAUCA", "Construct (chain)": "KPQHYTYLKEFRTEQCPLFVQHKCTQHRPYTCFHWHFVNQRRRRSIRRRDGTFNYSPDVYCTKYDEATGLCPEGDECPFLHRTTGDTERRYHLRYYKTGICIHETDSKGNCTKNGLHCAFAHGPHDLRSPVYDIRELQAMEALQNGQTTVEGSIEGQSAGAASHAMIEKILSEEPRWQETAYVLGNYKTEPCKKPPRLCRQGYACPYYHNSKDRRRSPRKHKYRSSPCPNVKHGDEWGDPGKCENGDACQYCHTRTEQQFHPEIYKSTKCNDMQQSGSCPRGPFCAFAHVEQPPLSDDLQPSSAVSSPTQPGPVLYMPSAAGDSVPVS"}
{"Sequence": "UCUGUUUGUUUUUCUGUUGUUGUAGCUUUUUUUGUCCUGUUAUGUUUUAUCUGUUUGUAUUUUAGAAGGGGGAGGGGAAGUUGUAAUUAUUUCAUCUAAGUCUCCCAUUAUAUAUCUGUG", "bound/input enrichment [ratio]": 6.54}
{"Sequence": "GUUGGCUGGCUCCGGUCCAAGAAGGCUGUUGACUGGCGUCUCUUUCGUAACAUUUUUAUGGCCUGGUUUGUCACAGUCCCCAUUUCUGGAGUUAUCAGUGCUGCCAUCAUGGCAAUCUUC", "bound/input enrichment [ratio]": 0.123}
{"Sequence": "GUCGCGGAACAGCAGGCCCGAGCCCACCGCGCCGGGCCCCGGACGCCGCGCGGAAAAGAUGAAUUUACAACCAAUUUUCUGGAUUGGACUGAUCAGUUCAGUUUGCUGUGUGUUUGCUCA", "bound/input enrichment [ratio]": 0.127}
{"Sequence": "UCUGGCCAUACUCGUGCAUAUGGUGUGUGCUUUGUUGAUACUUCACUGGGAAAGUUUUUCAUAGGUCAGUUUUCAGAUGAUCGCCAUUGUUCGAGAUUUAGGACUCUAGUGGCACACUAU", "bound/input enrichment [ratio]": 0.62}
{"Sequence": "UGGACUACCAAGCAUGUGGCUGUGUGGCUGAAGGACGAAGGUUUCUUUGAGUAUGUGGACAUUUUAUGCAACAAGCACCGCCUUGAUGGAAUCACAUUGCUCACGCUGACUGAAUAUGAU", "bound/input enrichment [ratio]": 0.186}
{"Sequence": "GGCAACAAAGAAGAUUACGACCUUUCAAAGAUGAGGGACUUUAUCAACCAACAAGCUGACGCUUAUGUGGAGAAGGGCAUCCUCGACAAGGAAGAAGCCAACGCCAUCAAACGCAUCUAC", "bound/input enrichment [ratio]": 0.0817}
{"Sequence": "AGUAUUAAAAAGAUCAUACAUGUGCUGGAGAAGGUGCAGUUUCUUGAGCAAGAAGUAGAAGAGUUUGUAGGAAAAAAGACAGACAAAGCGUAUUGGCUUCUGGAAGAAAUGCUGACAAAG", "bound/input enrichment [ratio]": 0.381}
{"Sequence": "AACAAGUGGGUGAUCCCGGAGUUGGUCGGCCACACCAUUGUCACUGUGCUGAUGCUUGUCUCCCUGCACUGGUUCAUCUUCCUUCUCAACUUACCUGUCGCCACGUGGAAUAUAUAUAGG", "bound/input enrichment [ratio]": 0.479}
{"Sequence": "CCAGAUAACCCGGGUUCUAUUCACAGGGCCCAGUUCCAAGGGCACUGCACACAGUGAUGCAUAGAUGUAUGCAGGCAAAACACCCAUUCACAUAAAAUAAAAUGAUCUUUAAAAAAUACU", "bound/input enrichment [ratio]": 0.556}
{"Sequence": "CUCCAUUUCUUCUCAUUUUGUGGCCUCGGGCUCCACCAGCUGCUCCCCAGUGACAGUCCCUAGCUUCCUUCUACCAUCUACUGACUGUCUCCACUGAGCCUUUCCUACCUUCCCUUCACA", "bound/input enrichment [ratio]": 0.464}
{"Sequence": "CUGCAGUCUUUGACUUUUCCUUUCUUUUUUGCCACCCUUUCAGGAACCCUGUAUGGUUUUUAGUUUAAAUUAAAGGAGUCGUUAUCGUGGUGGGAAUAUGAAAUAAAGUAGAAGAAAAGG", "bound/input enrichment [ratio]": 1.41}
{"data": "Series 2", "target": "Centromere-binding protein 1, full length, N-terminal tag (CBF1, Saccharomyces cerevisiae, UniProt P17106, residues 1-351)", "technique": "protein-binding microarray", "form": "double-stranded DNA, one strand shown", "matrix": "in vitro", "tested at": "0.8 µM", "notes": "whole 60-bp probe, no competitor", "reading": "higher = stronger binding", "all sequences stand within": "… GTCTTGATTCGCTTGACGCTGCTG", "sequence of UniProt P17106 (whole entry, looked up)": "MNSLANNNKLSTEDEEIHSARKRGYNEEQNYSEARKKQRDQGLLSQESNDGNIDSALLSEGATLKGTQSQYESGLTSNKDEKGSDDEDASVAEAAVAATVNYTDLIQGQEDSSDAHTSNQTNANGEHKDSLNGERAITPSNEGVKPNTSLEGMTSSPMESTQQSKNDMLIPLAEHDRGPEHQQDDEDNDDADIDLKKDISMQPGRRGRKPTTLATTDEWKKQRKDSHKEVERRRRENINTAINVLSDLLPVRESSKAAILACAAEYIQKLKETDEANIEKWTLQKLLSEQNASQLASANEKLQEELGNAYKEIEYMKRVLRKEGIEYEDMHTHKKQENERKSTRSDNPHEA"}
{"Sequence": "GAACAGACATACTTCTTCGTGATGCGAATTTGATAG", "fluorescence intensity [a.u.]": 608}
{"Sequence": "TGTACGAAGCTATCTTACGTGATTATAGTAGTTAGG", "fluorescence intensity [a.u.]": 528}
{"Sequence": "GAAGTAAGAGAATGTGACATCAATTGTTGTTGCTAG", "fluorescence intensity [a.u.]": 827}
{"Sequence": "CTAGAACAAATACATCACGAAGACAGAAATACGTTC", "fluorescence intensity [a.u.]": 639}
{"Sequence": "CTAAACTACCAATCTCGTGAGATTTTTCATAAGTTC", "fluorescence intensity [a.u.]": 584}
{"Sequence": "GAAATAGTGAAAACCAACGTGAAGAAGCAAAAGTAG", "fluorescence intensity [a.u.]": 557}
{"Sequence": "GAAAATCAGGTGAATCATGTGGGACTGAAGAGATAG", "fluorescence intensity [a.u.]": 1030}
{"Sequence": "CTAGATAATCTACATCATGTGGTACGTTAACGATTC", "fluorescence intensity [a.u.]": 1410}
{"Sequence": "CTAAAAACATCCGTACATCAGAAGGATTATATGTTC", "fluorescence intensity [a.u.]": 544}
{"Sequence": "GAATGAAGTATTGCCCACGTTCGAAATATAAATTAG", "fluorescence intensity [a.u.]": 571}
{"Sequence": "CTACTGCCACCATACCACGTGTGTCCCTCGCAATTC", "fluorescence intensity [a.u.]": 3020}
{"Sequence": "CTAAGTTCATCATTTCACGTGTGCAGCATAGTGTTC", "fluorescence intensity [a.u.]": 2390}
{"Sequence": "CCTAACTACTATATCCACGCGCAATAGCTTCGTACA", "fluorescence intensity [a.u.]": 521}
{"data": "Series 3", "target": "Ras GTPase-activating protein-binding protein 1, full length (G3BP1, Homo sapiens, UniProt Q13283)", "technique": "RNA Bind-n-Seq", "form": "RNA", "matrix": "in vitro", "tested at": "200 nM", "notes": "whole 134-nt RNA, ends assumed", "with": "150 mM LiCl", "relative to": "input library", "reading": "higher = stronger binding", "all molecules": "7-deaza-guanosine replaces G", "all sequences stand within": "GGGAGUUCUACAGUCCGACGAUC … UGGAAUUCUCGGGUGUCAAGG", "sequence of UniProt Q13283 (whole entry, looked up)": "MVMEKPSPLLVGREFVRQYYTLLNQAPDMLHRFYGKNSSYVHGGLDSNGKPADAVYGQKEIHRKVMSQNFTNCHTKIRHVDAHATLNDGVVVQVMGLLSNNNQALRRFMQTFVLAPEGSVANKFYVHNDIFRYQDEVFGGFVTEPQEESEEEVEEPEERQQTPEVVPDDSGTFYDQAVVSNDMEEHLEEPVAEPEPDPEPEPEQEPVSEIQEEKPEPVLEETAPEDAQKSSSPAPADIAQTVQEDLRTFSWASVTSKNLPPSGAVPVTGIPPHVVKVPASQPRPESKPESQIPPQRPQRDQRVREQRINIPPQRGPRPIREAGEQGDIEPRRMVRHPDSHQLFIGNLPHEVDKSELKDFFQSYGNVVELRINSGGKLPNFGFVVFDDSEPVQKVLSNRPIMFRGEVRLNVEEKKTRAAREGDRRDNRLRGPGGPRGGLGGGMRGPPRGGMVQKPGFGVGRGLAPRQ"}
{"Sequence": "GCAGGAAGUAAAAACAAAUGGAAAUGCUUCGGAUAGUGGCAUGGGUGGGGGUUGCUAAGGAAAGGGUGGGAUGGGAGUGGGUAAAGAGUU", "log2 enrichment": -0.14}
{"Sequence": "UCCUGUGCUACACAUCGUAUGUACCGAAUCGGGUUUUUGGGGUUUUUGGGUUUUUGGGGAAAGUAUUAUGUUACGCCGUUCGGAUCUGCA", "log2 enrichment": -0.00856}
{"Sequence": "UCAAGUCCUGUGCUACACAUCGUAUGUACCGAAUCGGGGAAGGGAAGGGAAGGGAAAGUAUUAUGUUACGCCGUUCGGAUCUGCACUUCC", "log2 enrichment": -0.362}
{"Sequence": "GCAGGAAGUAAAAACAAAUGGAAAUGCUUCGGAUAGUGGCAGGGGUCGGGGUUGCUAAGGAAAGGGUGGGAUGGGAGUGGGUAAAGAGUU", "log2 enrichment": -0.0147}
{"Sequence": "UCAAGUCCUGUGCUACACAUCGUAUGUACCGAAUCGGUUUGGUUUGGGUUUGGGGAAAGUAUUAUGUUACGCCGUUCGGAUCUGCACUUC", "log2 enrichment": -0.927}
{"Sequence": "GUCCUGUGCUACACAUCGUAUGUACCGAAUCAAACCCCCAAAUUUAAAUUUUUUUAAAAAAGUAUUAUGUUACGCCGUUCGGAUCUGCAC", "log2 enrichment": 0.712}
{"Sequence": "UAACUUUAGAGGAGGAUCUGAUGGAUAUGGCAGUGGACGUGGAUUUGGGGACGGCUAUAAUGGGUAUGGAGGAGGACCUGGAGGUGGCAA", "log2 enrichment": 0.00479}
{"Sequence": "UGGCCCUGGUGGCAUGCGGGGAGGAAGAGGUGGCCUCAUGGAUCGUGGUGGUCCCGGUGGAAUGUUCAGAGGUGGCCGAGGUGGAGACAG", "log2 enrichment": -0.33}
{"Sequence": "GUCCUGUGCUACACAUCGUAUGUACCGAAUCAAACCCCCCCAAACCCCCAAAUUUAAAAAAGUAUUAUGUUACGCCGUUCGGAUCUGCAC", "log2 enrichment": 0.275}
{"Sequence": "UCAAGUCCUGUGCUACACAUCGUAUGUACCGAAUCGGGAAAGGGAAAGGAAAGGAAAGUAUUAUGUUACGCCGUUCGGAUCUGCACUUCC", "log2 enrichment": -0.555}
{"Sequence": "UCCUGUGCUACACAUCGUAUGUACCGAAUCAAACCCCCCCAAACCCCCCCAAAUUUAAAAAAGUAUUAUGUUACGCCGUUCGGAUCUGCA", "log2 enrichment": 0.251}
{"data": "Series 4", "target": "Histone acetyltransferase KAT6A, winged helix 1, GST fusion (KAT6A, Homo sapiens, UniProt Q92794, residues 1-85)", "technique": "protein binding microarray", "form": "double-stranded DNA, one strand shown", "matrix": "in vitro", "tested at": "not given", "notes": "8-mer, flanks averaged, mean of 2 arrays, mostly near background", "relative to": "not given", "reading": "higher = stronger binding", "Target sequence (chain)": "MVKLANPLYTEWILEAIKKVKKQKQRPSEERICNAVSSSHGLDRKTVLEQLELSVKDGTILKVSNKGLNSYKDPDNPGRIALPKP"}
{"Sequence": "CCAGCTGA", "E-score": -0.245}
{"Sequence": "GGTATTCA", "E-score": -0.0856}
{"Sequence": "GCCGATAC", "E-score": 0.351}
{"Sequence": "CAGAAAGA", "E-score": -0.192}
{"Sequence": "ATGATGAG", "E-score": -0.233}
{"Sequence": "CCCCATCA", "E-score": -0.262}
{"Sequence": "GTTAGATA", "E-score": -0.175}
{"Sequence": "CAAAACTC", "E-score": -0.0911}
{"Sequence": "CGAGACCA", "E-score": -0.178}
{"Sequence": "ATTGAGTA", "E-score": -0.113}
{"Sequence": "CTAAACGA", "E-score": 0.0222}
{"Sequence": "ACGAGCAC", "E-score": -0.166}
{"Sequence": "ACGATCAG", "E-score": -0.175}
{"Sequence": "ATAAACAC", "E-score": -0.019}
{"Sequence": "AGCATCTG", "E-score": -0.181}
{"Sequence": "AATTATGT", "E-score": 0.0355}
{"Sequence": "GTTACCTA", "E-score": -0.165}
{"Sequence": "AAACGTGT", "E-score": -0.144}
{"Sequence": "GAGTACCC", "E-score": 0.155}
{"Sequence": "AGTTTCTC", "E-score": -0.137}
{"Sequence": "AACCTTGG", "E-score": -0.0916}
{"Sequence": "CAGCGCAA", "E-score": 0.172}
{"Sequence": "CTCTGTGA", "E-score": -0.207}
{"Sequence": "TCACAGAA", "E-score": -0.177}
{"Sequence": "GAAAAATC", "E-score": -0.185}
{"note": "Repeated from above (series 2):"}
{"Sequence": "TGTACGAAGCTATCTTACGTGATTATAGTAGTTAGG", "fluorescence intensity [a.u.]": 528}
{"Sequence": "GAAGTAAGAGAATGTGACATCAATTGTTGTTGCTAG", "fluorescence intensity [a.u.]": 827}
{"Sequence": "CTAGAACAAATACATCACGAAGACAGAAATACGTTC", "fluorescence intensity [a.u.]": 639}
{"Sequence": "CTAAACTACCAATCTCGTGAGATTTTTCATAAGTTC", "fluorescence intensity [a.u.]": 584}
{"Sequence": "GAAATAGTGAAAACCAACGTGAAGAAGCAAAAGTAG", "fluorescence intensity [a.u.]": 557}
{"Sequence": "GAAAATCAGGTGAATCATGTGGGACTGAAGAGATAG", "fluorescence intensity [a.u.]": 1030}
{"Sequence": "CTAGATAATCTACATCATGTGGTACGTTAACGATTC", "fluorescence intensity [a.u.]": 1410}
{"Sequence": "CTAAAAACATCCGTACATCAGAAGGATTATATGTTC", "fluorescence intensity [a.u.]": 544}
